Assay results from different studies.
Parts stem from different laboratories: compare values within a part only. Changes are numbered by the printed parent chain.

Study 1 — method: DHFR PCA, deep sequencing; medium: yeast; added: (+)-ABA 2500 µM; reference: wild-type fitted maximum; direction: higher = stronger binding
Target: ABI1, truncated, D143A, DHFR fusion (Arabidopsis thaliana)
Notes: methotrexate growth selection, single substitutions
Starting sequence: PYL1, truncated, DHFR fusion (Arabidopsis thaliana); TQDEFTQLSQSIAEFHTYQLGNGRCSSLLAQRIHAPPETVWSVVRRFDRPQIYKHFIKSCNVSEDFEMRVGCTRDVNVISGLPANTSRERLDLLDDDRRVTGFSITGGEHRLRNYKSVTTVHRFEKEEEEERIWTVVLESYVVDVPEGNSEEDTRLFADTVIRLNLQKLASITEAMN
| Substitution | relative binding score |
| --- | --- |
| G102H | 26.9% |
| V78E | 13.1% |
| E147G | 94.7% |
| D153I | 33% |
| N22R | 103% |
| M176A | 98.2% |
| I52W | 93% |
| L91P | 3.46% |
| K54V | -7.8% |
| V143T | 96% |
| I52M | 93.6% |
| K58A | 96.9% |
| E174F | 88% |
| V78G | 42.7% |
| V161Q | 57.2% |
| Q19K | 106% |
| A158W | -3.86% |
| E125Y | 107% |
| V70Q | 91.3% |
| F157E | 4.22% |
| D159Q | 88.5% |
| T73A | 96.8% |

Study 2 — method: protein-binding microarray; form: double-stranded DNA, one strand shown; medium: in vitro; concentration: 250 nM; notes: 60-bp whole probe; added: salmon DNA 0.4 mg/ml; reference: random background probes; direction: higher = stronger binding; all sequences stand within: GCCTAGCAC … GTCTTGATTCGCTTGACGCTGCTG
Target: Interferon regulatory factor 7, full length, phosphomimetic (IRF7, Homo sapiens, UniProt Q92985, residues 1-503, S101K/S471D/S472D/S475D/S476D/S477D/S483D/S484D/S487D)
Target sequence (chain): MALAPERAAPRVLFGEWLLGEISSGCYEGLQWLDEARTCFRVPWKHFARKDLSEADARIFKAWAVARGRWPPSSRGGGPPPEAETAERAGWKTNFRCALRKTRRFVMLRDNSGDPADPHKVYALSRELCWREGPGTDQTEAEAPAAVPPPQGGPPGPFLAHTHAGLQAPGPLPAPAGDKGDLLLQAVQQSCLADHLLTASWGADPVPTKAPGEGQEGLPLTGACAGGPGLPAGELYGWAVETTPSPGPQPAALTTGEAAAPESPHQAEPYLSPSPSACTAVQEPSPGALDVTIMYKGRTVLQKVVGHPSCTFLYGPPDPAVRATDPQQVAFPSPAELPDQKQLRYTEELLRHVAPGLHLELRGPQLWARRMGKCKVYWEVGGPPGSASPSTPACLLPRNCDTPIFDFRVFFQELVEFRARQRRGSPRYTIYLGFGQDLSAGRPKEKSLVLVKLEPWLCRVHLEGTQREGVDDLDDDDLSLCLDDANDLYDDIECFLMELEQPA
| Sequence | log fluorescence [z-score] |
| --- | --- |
| TTGTTTCTAATATTCTGCTTGTGCTAG | 1.96 |
| GACGGTCTCGGACTGGGGAGGTGCTAG | 0.0412 |
| CAGAATCTCTCATGTTACATTGTGCTA | 0.178 |
| TCAACTTTCTGAATGCCACTGTGCTAG | 0.419 |
| TCACATTTCAATTAGAAACTGTGCTAG | 1.83 |
| TTAGGACTGCTTTTCCTTTCGTGCTAG | 1.27 |
| GACGATATCGACTATCGGGACGTGCTA | -0.125 |
| CTATAAAGCATCAGGAAAGCGTGCTAG | -0.208 |
| GACGGACTGCTGATCCTGACGTGCTAG | -0.875 |
| TCAGGAGTCAACTCTCTAACTGTGCTA | -1.19 |
| TTAGGTATCGGTCTCGGTGAGTGCTAG | 0.875 |
| GACGGTTGCCTTTCCCTGACGTGCTAG | -0.0718 |
| TCATGTATATACTATATGACTGTGCTA | 0.26 |
| GACGCTATCCTTATCCTGACGTGCTAG | 0.212 |
| TTAGGTTTCGACTATCGGTCAGTGCTA | 5.26 |
| GACTGTCTCCTTCTCCTGACGTGCTAG | 0.133 |
| TCTCCTCCAGGTTCTCTGACAGTGCTA | 0.166 |
| GACGGTTTCGGGTAGCGGGACGTGCTA | 7.94 |

Study 3 — method: competition protein-binding microarray; form: double-stranded DNA, one strand shown; medium: in vitro; concentration: 2 µM; added: Pho4 competitor, 0.05 µM; direction: higher = stronger binding
Target: Centromere-binding protein 1, full length, His-tagged (CBF1, Saccharomyces cerevisiae, UniProt P17106, residues 1-351)
Chain of UniProt P17106 (whole entry, looked up): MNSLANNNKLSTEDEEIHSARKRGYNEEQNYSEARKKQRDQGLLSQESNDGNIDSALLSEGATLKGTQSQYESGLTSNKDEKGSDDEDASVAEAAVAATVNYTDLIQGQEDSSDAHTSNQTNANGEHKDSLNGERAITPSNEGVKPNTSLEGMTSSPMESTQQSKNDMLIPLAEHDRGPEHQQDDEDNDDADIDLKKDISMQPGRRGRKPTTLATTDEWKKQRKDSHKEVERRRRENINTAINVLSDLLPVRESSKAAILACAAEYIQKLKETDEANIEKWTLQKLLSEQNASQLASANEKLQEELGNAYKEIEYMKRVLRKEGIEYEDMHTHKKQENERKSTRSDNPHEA
Notes: whole 60-bp probe, lowest competitor level
| Sequence | fluorescence intensity [a.u.] |
| --- | --- |
| AAGGTAATGGTATGGCTCGTGACGGATTTACCCAACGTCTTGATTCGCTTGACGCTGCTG | 277 |
| ACAAAATTCCCCCATCACGTGAAGCAGGAGGCGCAAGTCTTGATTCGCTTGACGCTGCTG | 3670 |
| TTCGCTACAAAATAATGCGTGATGGTTTCAGTGAAGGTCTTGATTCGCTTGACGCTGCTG | 102 |
| GGTATGTTCTGCAACAGCGTGCCAGTCTCTTGGCCCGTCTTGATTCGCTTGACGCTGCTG | 81.4 |
| CGCATATTTTACTGTCATGCTTCTGTCAAGAAAAAGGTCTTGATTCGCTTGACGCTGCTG | 240 |
| CGGGGTTAAGTTTAACACGTGTTTTGCTTGCAGCAGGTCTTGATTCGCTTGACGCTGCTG | 1410 |
| GTCTTGTCTCATTGGCACGTGTTTTTCCCCACTTCAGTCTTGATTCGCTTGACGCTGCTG | 1950 |
| CGGGGTTAAGTTTGAACTGTGGGTGGCTTGCAGCAGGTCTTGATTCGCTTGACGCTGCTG | 68.8 |
| CCGGTTGACGGGGTTCGCGTGATTGTGCGATTCGTTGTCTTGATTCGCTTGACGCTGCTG | 97.8 |
| GTCTTGTCTCATTGCCTAGTGGGTGTCCCCACTTCAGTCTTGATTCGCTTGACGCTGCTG | 90.4 |
| TTTTCTTTTCTGTTAAACGTGTGAATTGTCGTTCCTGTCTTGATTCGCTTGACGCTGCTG | 84.1 |
| GTCTATCTTGACCAGCGCGTGGTCGGCCGCCAATGCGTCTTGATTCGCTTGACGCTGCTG | 75.3 |
| CCCGTTAGAATCCATCACGTAACCTGGTGGCGCTTTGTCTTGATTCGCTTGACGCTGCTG | 79.3 |
| AAAGCGGTAATTTGTCACGCGACTTCACATATCTATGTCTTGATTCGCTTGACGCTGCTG | 885 |

Study 4 — target: CCND2, cyclin fold, Cln2 fusion (human); method: yeast growth competition, sequencing; medium: yeast; notes: strong parent motif; reference: not given; direction: higher = stronger binding
Starting sequence: INSM1 docking peptide (human); PKAIRKLHFEDEV
| Substitution | normalised enrichment score |
| --- | --- |
| PKARRKLHFEDEV [I4R] | 1.83 |
| PKAIRKLDFEDEV [H8D] | 3.32 |
| PKAIRKLHFEAEV [D11A] | 1.8 |
| PIAIRKLHFEDEV [K2I] | 1.15 |
| PKAIRKLHFEDYV [E12Y] | 1.68 |
| PKKIRKLHFEDEV [A3K] | 0.532 |
| PKAIQKLHFEDEV [R5Q] | 0.701 |
| PKAIRKGHFEDEV [L7G] | -0.0155 |
| PRAIRKLHFEDEV [K2R] | 2.36 |
| PKAIRVLHFEDEV [K6V] | 1.71 |
| PKGIRKLHFEDEV [A3G] | 0.68 |
| PKAIRKLQFEDEV [H8Q] | 3.17 |
| PKHIRKLHFEDEV [A3H] | 0.535 |
| PKSIRKLHFEDEV [A3S] | 0.694 |
| PKAIRKLSFEDEV [H8S] | 2.88 |
| PKAIRKHHFEDEV [L7H] | -0.223 |
| PKAIRKLHFEDSV [E12S] | 1.87 |

Study 5 — method: RNA Bind-n-Seq; form: RNA; medium: in vitro; concentration: not given; notes: RNA with constant flanks, ends assumed; reference: input RNA pool; direction: higher = stronger binding
Target: RING finger protein unkempt homolog, zinc fingers 1-6, GST-SBP tag (UNK, Homo sapiens, UniProt Q9C0B0, residues 30-357)
Residues (chain): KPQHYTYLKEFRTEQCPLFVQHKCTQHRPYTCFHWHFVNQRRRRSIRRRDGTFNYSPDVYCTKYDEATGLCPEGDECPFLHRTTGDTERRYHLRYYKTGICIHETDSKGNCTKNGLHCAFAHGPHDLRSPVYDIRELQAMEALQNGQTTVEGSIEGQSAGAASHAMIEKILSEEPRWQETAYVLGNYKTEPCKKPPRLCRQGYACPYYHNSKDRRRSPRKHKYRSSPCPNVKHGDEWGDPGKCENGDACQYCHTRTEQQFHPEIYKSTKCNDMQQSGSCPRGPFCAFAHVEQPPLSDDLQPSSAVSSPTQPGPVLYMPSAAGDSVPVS
| Sequence | bound/input enrichment |
| --- | --- |
| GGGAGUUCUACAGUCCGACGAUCACUGACACGAUGAUUCAGACUCCUGGACCCUUGCCAACCCCACAGCUCACCUCCACGGUACUCCGAGAAAACAGCCGUCCCAUGGGAGAGCAGAUUCAGGAACCUGAGUCUGAGCAUGGCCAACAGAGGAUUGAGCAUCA | 0.0675 ratio |
| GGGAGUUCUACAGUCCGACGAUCAACGGUGCCCCUGCAUGUGCUCAGAAGCUCUAUGCAGAACUGUGCCAAGGCAUCGUGGACACCGCCAUUUCCAGUGUCUUCCCACCCCCAGAUGUGGAGCAACCUCAGACCCAGCCAGCUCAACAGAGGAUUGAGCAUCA | 0.159 ratio |
| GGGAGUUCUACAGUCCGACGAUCCAUACUUGAACAUUUGUAUCGACUGCAUUGUCUCUCUUUUUUUGGCUAUAAUUAUUCACCUUCCGCUUUUGUCUCUUGUGCAUGCUAUCACAGUUUUGCUUGUAUUUUUAGCAUAUGAACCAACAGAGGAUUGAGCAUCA | 0.516 ratio |
| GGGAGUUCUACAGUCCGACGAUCGUUUACAUCUUUGGUGACGGACGAGGCCUUAUAGAAGGAAAUGACAUUUAUGGUAAUGCGUCCGCAGGAAUUCAGAUCAGGACAAACAGUUGUCCUAUUGUUCGACAUAACAAAAUUCAUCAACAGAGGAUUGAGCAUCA | 0.231 ratio |
| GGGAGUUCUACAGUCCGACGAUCACUUUUGGACUUGAUCAAUUGAAAACCAGAGAAGCCAUUGCCAUGCUCCACAAAGAUGGUACCGAAUUUGCUUUUAAGGAGCCUAAUCCACAAGGGGAGAGCCAUCCACCUUUAAACUUGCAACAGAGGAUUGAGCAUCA | 0.144 ratio |

Study 6 — target: MAFK, bZIP domain (human); method: DHFR protein complementation; medium: yeast; reference: wild-type JUN-FOS pair; direction: higher = stronger binding
Notes: single substitutions, most at no-binding floor
Starting sequence: JUN, bZIP domain (human); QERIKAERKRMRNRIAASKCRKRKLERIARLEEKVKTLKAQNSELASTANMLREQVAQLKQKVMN; partner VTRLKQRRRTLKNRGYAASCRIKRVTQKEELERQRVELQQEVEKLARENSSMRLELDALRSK
| Substitution | binding fitness |
| --- | --- |
| L38D | -1.47 natural log |
| I28W | -1.58 natural log |
| T37P | -1.53 natural log |
| A29T | -1.52 natural log |
| L31Q | -1.46 natural log |
| K34P | -1.48 natural log |
| T37Q | -1.34 natural log |
| S47P | -1.51 natural log |
| E32A | -1.39 natural log |
| K34L | -1.49 natural log |
| A57Q | -1.52 natural log |
| K36I | -1.43 natural log |
| Q55K | -1.48 natural log |
| T48C | -1.46 natural log |
| Q41I | -1.4 natural log |
| E44T | -1.5 natural log |
| E32Q | -1.45 natural log |

Excerpt of the above (study 4):
| Substitution | normalised enrichment score |
| --- | --- |
| PKAIRVLHFEDEV [K6V] | 1.71 |
| PKGIRKLHFEDEV [A3G] | 0.68 |
| PKAIRKLQFEDEV [H8Q] | 3.17 |
| PKHIRKLHFEDEV [A3H] | 0.535 |
| PKSIRKLHFEDEV [A3S] | 0.694 |
| PKAIRKLSFEDEV [H8S] | 2.88 |
| PKAIRKHHFEDEV [L7H] | -0.223 |
